Results pooled from the literature.
Protocols differ between the studies behind these lines. ± gives the spread as reported.

Compound	test	system	setting	tissue uptake
CCCC[C@H](NC(=O)CNC(=O)CNC(=O)[C@H](CCCCNC(=O)[C@H](CC(=O)O)NC(=O)C(C)c1ccc(CC(C)C)cc1)NC(=O)CN1CCN(CC(=O)O)CCN(CC(=O)O)CCN(CC(=O)O)CC1)C(=O)N[C@H]1CC(=O)NCCCC[C@@H](C(N)=O)NC(=O)[C@H](Cc2c[nH]c3ccccc23)NC(=O)[C@H](CCCNC(=N)N)NC(=O)[C@@H](Cc2ccccc2)NC(=O)[C@H](Cc2c[nH]cn2)NC1=O (stereo partly drawn) [lutetium-177 labelled]	–	C57 mice, tumour-bearing, pancreas	intravenous, 0.037 MBq, 0.5 h	1.14 ± 0.18 %ID/g
O=C([O-])CN1CCN(CC(=O)[O-])CCN(CC(=O)NC[C@H]2CC[C@H](C(=O)N[C@H](Cc3cnc4ccccc4c3)C(=O)NCCCC[C@H](NC(=O)N[C@@H](CCC(=O)O)C(=O)O)C(=O)O)CC2)CCN(CC(=O)[O-])CC1.[64Cu+2]	ex vivo gamma counting	22Rv1 tumour-bearing mice, brain	intravenous, 0.74 MBq, 1 h post-injection	0.36 %ID/g
COc1ccc2c(c1)C(C)(C)C(/C=C/C1=C(Oc3ccc(C(=O)NCCCCOc4cc(CN(Cc5ccccn5)Cc5ccccn5)cc(CN(Cc5ccccn5)Cc5ccccn5)c4)cc3)C(=C/C=C3/N(CCCCS(=O)(=O)[O-])c4ccc(OC)cc4C3(C)C)CCC1)=[N+]2CCCCS(=O)(=O)[O-].O=[N+]([O-])[O-].O=[N+]([O-])[O-].[99Tc+].[C-]#[O+].[C-]#[O+].[C-]#[O+].[Zn+2]	–	healthy BALB/c mice, gall bladder	12 h	15.6 %ID/g
O=C(NCC1OC2CCC=CCCC2O1)c1ccc([18F])nc1 (stereo not drawn)	–	healthy female BALB/c nude mice, pancreas	intravenous, 7.4 MBq per mouse, 2 min	4.6 ± 0.9 %ID/g
N#C[C@@H]1CCCN1C(=O)CNC(=O)c1ccnc2ccc(OCCCN3CCN(C(=O)CCc4ccc5c(c4)CN4CCN6CC(=O)[O][68Ga-]([O]C(=O)C4)([O]5)[O]c4ccc(CCC(=O)N5CCN(CCCOc7ccc8nccc(C(=O)NCC(=O)N9CCC[C@H]9C#N)c8c7)CC5)cc4C6)CC3)cc12	–	BALB/c nude mice, U-87 MG xenograft, lung	1 h, blocking, added: DOTA-FAPI-04 40 nmol/mouse co-injected	3.34 ± 0.57 %ID/g
CC(C)C[C@H](NC(=O)[C@@H](CCCCNC(=O)[C@@H](Cc1ccccc1)NC(=O)CCCCCCCNC(=O)CN1CCN(CC(=O)O)CCN(CC(=O)O)CCN(CC(=O)O)CC1)NC(=O)[C@H](Cc1ccc(O)cc1)NC(=O)[C@H](CO)NC(=O)[C@H](Cc1c[nH]c2ccccc12)NC(=O)[C@H](Cc1c[nH]cn1)NC(=O)[C@@H]1CCC(=O)N1)C(=O)N[C@@H](CCCNC(=N)N)C(=O)N1CCC[C@H]1C(=O)NCC(N)=O [indium-111 labelled]	–	male athymic nude mice, DU-145 prostate cancer xenograft, stomach	intravenous, dose not given, 1 h, added: unlabeled blocking peptide 10 µg	0.42 ± 0.3 %ID/g
COc1ccc(Nc2nc(Nc3ccc(OCCOCCOCC[18F])cc3)ncc2Br)cc1	–	ICR mice, S180 tumour-bearing, lung	intravenous, 370 kBq, 120 min	3.53 ± 0.32 %ID/g
Cc1cc(C)n(CCN(CCN)CCCCCCNC(=O)[C@@H](N)Cc2c[nH]c3ccccc23)n1.[99Tc+].[C-]#[O+].[C-]#[O+].[C-]#[O+]	–	BALB/c nude mice, A549 xenograft, blood	intravenous, 4 h	0.38 ± 0.13 %IA/g
CCCC[C@H](NC(=O)COCCOCCNC(=O)CN1CCN(CC(=O)O)CCN(CC(=O)O)CC1)C(=O)N[C@H]1CC(=O)NCCCC[C@@H](C(N)=O)NC(=O)[C@H](Cc2c[nH]c3ccccc23)NC(=O)[C@H](CCCNC(=N)N)NC(=O)[C@@H](Cc2ccccc2)NC(=O)[C@H](Cc2c[nH]cn2)NC1=O [fluorine-18 labelled]	–	C57 mice B16-F10 melanoma, skin	intravenous, 0.37 MBq, 0.5 h	2.25 ± 0.28 %ID/g

A few entries again:
Compound	test	system	setting	tissue uptake
N#C[C@@H]1CCCN1C(=O)CNC(=O)c1ccnc2ccc(OCCCN3CCN(C(=O)CCc4ccc5c(c4)CN4CCN6CC(=O)[O][68Ga-]([O]C(=O)C4)([O]5)[O]c4ccc(CCC(=O)N5CCN(CCCOc7ccc8nccc(C(=O)NCC(=O)N9CCC[C@H]9C#N)c8c7)CC5)cc4C6)CC3)cc12	–	BALB/c nude mice, U-87 MG xenograft, lung	1 h, blocking, added: DOTA-FAPI-04 40 nmol/mouse co-injected	3.34 ± 0.57 %ID/g
